Results collected from several papers.
UniProt P30530, sequence (whole entry, looked up): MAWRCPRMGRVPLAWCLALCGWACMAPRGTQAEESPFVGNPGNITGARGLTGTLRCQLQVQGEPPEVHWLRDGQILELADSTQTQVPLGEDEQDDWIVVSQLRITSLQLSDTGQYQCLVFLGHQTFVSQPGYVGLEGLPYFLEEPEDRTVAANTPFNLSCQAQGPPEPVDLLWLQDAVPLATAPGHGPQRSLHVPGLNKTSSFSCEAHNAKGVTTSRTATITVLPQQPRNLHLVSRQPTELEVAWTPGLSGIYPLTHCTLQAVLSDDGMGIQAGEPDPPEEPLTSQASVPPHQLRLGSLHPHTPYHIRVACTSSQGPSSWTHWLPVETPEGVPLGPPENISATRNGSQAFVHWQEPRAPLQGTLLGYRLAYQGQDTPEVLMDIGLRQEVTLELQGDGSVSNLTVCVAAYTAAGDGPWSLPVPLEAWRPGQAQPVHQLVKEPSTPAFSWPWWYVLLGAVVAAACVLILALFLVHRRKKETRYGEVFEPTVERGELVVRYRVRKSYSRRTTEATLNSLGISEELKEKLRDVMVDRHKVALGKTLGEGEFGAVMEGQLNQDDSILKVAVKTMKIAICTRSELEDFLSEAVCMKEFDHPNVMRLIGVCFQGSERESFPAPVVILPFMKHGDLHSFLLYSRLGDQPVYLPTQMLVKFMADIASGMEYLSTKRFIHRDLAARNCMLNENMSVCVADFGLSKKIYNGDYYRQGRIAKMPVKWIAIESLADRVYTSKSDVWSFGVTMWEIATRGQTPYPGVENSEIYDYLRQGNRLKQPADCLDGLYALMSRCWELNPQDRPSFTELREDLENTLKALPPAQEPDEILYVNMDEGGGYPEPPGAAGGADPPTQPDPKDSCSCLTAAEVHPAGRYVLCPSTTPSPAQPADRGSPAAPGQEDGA
UniProt Q15569, sequence (whole entry, looked up): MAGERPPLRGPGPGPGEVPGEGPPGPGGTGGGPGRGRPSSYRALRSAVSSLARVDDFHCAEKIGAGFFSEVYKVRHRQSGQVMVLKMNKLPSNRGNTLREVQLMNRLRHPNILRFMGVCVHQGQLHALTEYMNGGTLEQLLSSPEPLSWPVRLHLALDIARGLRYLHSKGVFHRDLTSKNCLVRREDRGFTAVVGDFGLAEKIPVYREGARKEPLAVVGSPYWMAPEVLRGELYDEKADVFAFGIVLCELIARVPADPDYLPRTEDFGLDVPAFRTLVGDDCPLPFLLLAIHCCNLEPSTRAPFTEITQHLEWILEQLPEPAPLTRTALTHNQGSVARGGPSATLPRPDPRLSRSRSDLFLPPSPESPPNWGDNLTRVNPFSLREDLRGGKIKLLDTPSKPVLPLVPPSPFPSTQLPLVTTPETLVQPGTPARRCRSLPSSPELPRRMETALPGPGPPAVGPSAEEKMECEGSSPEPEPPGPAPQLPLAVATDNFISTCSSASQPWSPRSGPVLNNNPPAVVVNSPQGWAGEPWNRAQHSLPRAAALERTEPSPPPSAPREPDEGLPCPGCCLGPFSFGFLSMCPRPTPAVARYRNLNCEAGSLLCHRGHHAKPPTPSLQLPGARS
UniProt Q5MAI5, sequence (whole entry, looked up): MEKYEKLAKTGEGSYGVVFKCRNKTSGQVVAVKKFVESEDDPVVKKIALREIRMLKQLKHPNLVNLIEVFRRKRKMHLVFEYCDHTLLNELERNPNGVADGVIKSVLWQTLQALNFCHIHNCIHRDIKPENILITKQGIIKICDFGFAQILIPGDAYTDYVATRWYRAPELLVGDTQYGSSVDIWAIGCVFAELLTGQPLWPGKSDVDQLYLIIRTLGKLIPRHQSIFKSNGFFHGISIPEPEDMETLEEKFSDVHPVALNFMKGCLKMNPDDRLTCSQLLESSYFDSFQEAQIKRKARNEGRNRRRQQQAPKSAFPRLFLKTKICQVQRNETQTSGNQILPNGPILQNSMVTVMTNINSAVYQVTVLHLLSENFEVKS

Cc1ccc(S(=O)(=O)NNc2ccc([N+](=O)[O-])cc2[N+](=O)[O-])cc1
viability (HEK293; cell growth or viability, MTT; 7.8125 µg/mL): 90.5%

O=c1[nH]c2ccsc2c(=O)n1O
viability (HFF; cell growth or viability, MTS; 10 µM, 7 days): 117%

Cn1cnc2c1c(=O)n(CC(=O)Nc1c(Cl)cccc1Cl)c(=O)n2C
viability (Vero; cell growth or viability, MTT; 31.25 µg/mL): 99.7%

Cc1cc([C@@H](C)Nc2ccccc2C(=O)O)c2nc(N3CCC(F)(F)CC3)c(C#N)c(=O)n2c1
remaining binding (AXL (Homo sapiens, UniProt P30530); binding, competition with immobilised ligand; 1 µM): 78%

Cc1c(C)c2c(c(C)c1O)CCC(C)(COc1ccc(CC3SC(=O)NC3=O)cc1)O2 (stereo not drawn)
viability (THLE-2; cell growth or viability, MTT; 100 µM, 96 h): 5.9%

COc1ccc(NC(=O)Nc2ccc(-c3cn(Cc4ccc(C)cc4)nn3)cc2)cc1
viability (L02; cell growth or viability, CCK-8; 50 µM, 72 h): 112%

CCNc1nc(Nc2ccc(F)c(Cl)c2)c2ccccc2n1
viability (Vero; cell growth or viability, MTT; 62.5 µg/mL): 99.8%

COc1cccc2c1C(=O)c1c(O)c3c(c(O)c1C2=O)C[C@@](O)(C(=O)CO)C[C@@H]3O[C@H]1C[C@H](N)[C@H](O)[C@H](C)O1
viability (SW480; cell growth or viability, MTT; 6.25 µg/mL): 71.7%

COc1cccc(-c2n[nH]c(SCc3ccccn3)n2)c1OC
concentration (male Sprague-Dawley rat, plasma; intravenous, 1 mg/kg, 2 h, single dose): 97.1 ng/mL

CC1(F)CN(C(=O)Cn2c(=O)c(C(=O)NCc3ccc(Cl)cc3)cc3nc(N4CCNC4=O)cnc32)C1
viability (MRC5; cell growth or viability, CCK-8; 40 µM): 91%

COc1cccc(NC(=O)Nc2ccc(Oc3nc4ccccc4n4cnnc34)cc2)c1
viability (WISH; cell growth or viability, MTT; 25 µM, 24 h): 83.9%

CCCCC(=O)Nc1ccc(-c2ccc3ncn(CCC)c(=O)c3c2)cn1
remaining binding (MET (Homo sapiens, UniProt P08581, M1250T); binding, competition with immobilised ligand; 0.5 µM): 87%

COc1cc(-c2cncc3c2CN(C)Cc2cc(N4CCNCC4)ccc2-3)cc(OC)c1OC
remaining activity (CDKL4 (Homo sapiens, UniProt Q5MAI5); enzyme activity, inhibitor; 1 µM): 115%

O=C1c2ccccc2C(c2ccccc2)C(=O)N1OCc1ccccc1 (stereo not drawn)
viability (HFF; cell growth or viability, MTS; 10 µM, 7 days): 129%

O=C1CC[C@H](N2Cc3cc(N4CCN(CC5CCN(c6ccc([C@@H]7c8ccc(O)cc8CC[C@@H]7c7ccccc7)cc6)CC5)CC4)ccc3C2=O)C(=O)N1
AUC(0-t) (male Sprague-Dawley rat, plasma; intravenous, 5 mg/kg, fed): 5740 ng·h/mL

COc1cc(/C=C/C(=O)C(=Cc2ccccc2)C(=O)/C=C/c2ccc(O)c(OC)c2)ccc1O
viability (WRL68; cell growth or viability, MTT; 0.4 µg/mL, 48 h): 12.1%

C=CC(=O)N1CCC(COCC(=O)N2CCN(c3nc(-c4cnc(N)nc4C(F)F)nc(N4CCOC[C@@H]4C)n3)CC2)CC1
remaining binding (TESK1 (Homo sapiens, UniProt Q15569); binding, competition with immobilised ligand; 1 µM): 100%

CNc1ncc2c(/C=C/C(=O)N3CCC(OC)CC3)nn(Cc3cccc(C(F)(F)F)c3)c2n1
remaining activity (PIM3 (Homo sapiens, UniProt Q86V86); enzyme activity, inhibitor, radiometric; 1 µM): 88%

CNC(=O)c1cc(Oc2ccc(NC(=O)Nc3ccc(Cl)c(C(F)(F)F)c3)cc2)ccn1
viability (WISH; cell growth or viability, MTT; 100 µM, 24 h): 19.7%

COc1cccc(OC)c1-c1cc(C(=O)NC2(C(=O)O)C3CC4CC(C3)CC2C4)nn1-c1ccc(C(=O)N(C)CCCN(C)CCCN(C)C(=O)CN2CCN(CC(=O)[O-])CCN(CC(=O)[O-])CCN(CC(=O)[O-])CC2)cc1C(C)C.[177Lu+3] (stereo not drawn)
tracer uptake (HT-29 tumour model; host not given, blood; 72 h, tumour-bearing): 0.1 %ID/g

O=c1[nH]c2sc3c(c2c(=O)n1O)CCCC3
viability (HFF; cell growth or viability, MTS; 10 µM, 7 days): 68%

COc1ccc(NC(=O)Nc2cccc(-c3cn(Cc4ccc(Cl)cc4)nn3)c2)cc1
viability (L02; cell growth or viability, CCK-8; 50 µM, 72 h): 120%

Cc1ccc(CCC(=O)Nc2nnc(S(N)(=O)=O)s2)cc1
viability (Vero; cell growth or viability, MTS; 392 µM, 24 h): 95 to 100%

O=c1nc(N2CCN(CC3CCCCC3)CC2)sc2c([N+](=O)[O-])cc(C(F)(F)F)cc12
concentration (CD-1 mouse, plasma; intravenous, 10 mg/kg, 15 min): 7130 ng/mL

Nc1ccn([C@@H]2O[C@H](CO)[C@@H](O)C2(F)F)c(=O)n1
viability (MDA-MB-231; cell growth or viability, MTT; 0.625 µg/mL, 24 h): 88.6%

O=c1[nH]c2cc(-c3ccc(Cl)cc3)sc2c(=O)n1O
viability (HFF; cell growth or viability, MTS; 10 µM, 7 days): 78%

COc1cc(/C=C/C(=O)C(=Cc2ccc(O)cc2)C(=O)/C=C/c2ccc(O)c(OC)c2)ccc1O
viability (WRL68; cell growth or viability, MTT; 0.77 µg/mL, 48 h): 105%

Excerpt of the above:
CCCCC(=O)Nc1ccc(-c2ccc3ncn(CCC)c(=O)c3c2)cn1
remaining binding (MET (Homo sapiens, UniProt P08581, M1250T); binding, competition with immobilised ligand; 0.5 µM): 87%

COc1cccc(OC)c1-c1cc(C(=O)NC2(C(=O)O)C3CC4CC(C3)CC2C4)nn1-c1ccc(C(=O)N(C)CCCN(C)CCCN(C)C(=O)CN2CCN(CC(=O)[O-])CCN(CC(=O)[O-])CCN(CC(=O)[O-])CC2)cc1C(C)C.[177Lu+3] (stereo not drawn)
tracer uptake (HT-29 tumour model; host not given, blood; 72 h, tumour-bearing): 0.1 %ID/g

COc1cc(/C=C/C(=O)C(=Cc2ccc(O)cc2)C(=O)/C=C/c2ccc(O)c(OC)c2)ccc1O
viability (WRL68; cell growth or viability, MTT; 0.77 µg/mL, 48 h): 105%
